Published values pooled from the literature.
Each numbered part is a random draw from the data of one study; scales do not carry over between parts.

Set 1
Target: RNA binding protein fox-1 homolog 2, RRM domain, GST-SBP tag (RBFOX2, Homo sapiens, UniProt O43251-10, residues 100-194)
Technique: RNA Bind-n-Seq
Molecule type: RNA
Matrix: in vitro
Concentration: 365 nM
Notes: natural RNA segment, single round, ends assumed
Baseline: no-protein control
Reading: higher = stronger binding
Residues (chain): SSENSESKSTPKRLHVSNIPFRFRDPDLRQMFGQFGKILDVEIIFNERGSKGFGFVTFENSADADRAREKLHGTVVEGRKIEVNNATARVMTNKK
| Oligonucleotide | RBNS enrichment (R) |
| --- | --- |
| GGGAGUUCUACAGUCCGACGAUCUAACAUAUACUUGCUAUAGCUAAUGAAAAGGGCUUUUCUUUUUUCUUUUUCUUUCUCUUUUUUUCCUUUUUCACUCAAAAUACUAUUAAGGAGUUUCUCAGACAAAUUGAUGGAAUUCUCGGGUGCCAA | 0.75 |
| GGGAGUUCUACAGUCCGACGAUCAAGCUUCAGUAGCCUGUAGGCGGCUGUACUUGGAACAGACAUUUGGCUGCCAGUAGCAGGCCUGGCAUGGCGUGACGGGAGGGGCCUAAUUACCUAGCUGUUGCUGGACAUGGAAUUCUCGGGUGCCAA | 0.734 |
| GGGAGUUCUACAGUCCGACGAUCGCCUCCAGCUGCCCGUAACCACCGAUCUGGUCAAAAGCUGGAGGGGUCAGGGUGGAACAGGGACAGUUUGGUGGUUGCGGGGCCCUGACUCCCUGGGCUCCCCCCUGCCUUGGAAUUCUCGGGUGCCAA | 0.82 |
| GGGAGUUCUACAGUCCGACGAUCUGAUGAUUACUGGAAUCGAUUUUAUGUCUUUUGUAUUUUAAUCACUUGAGUUAAUCAACCACUGGCAAAUCCCAUUUGACAAAGAUUAGCAUUGUAAAAAACAGAUACUGUGGAAUUCUCGGGUGCCAA | 0.355 |
| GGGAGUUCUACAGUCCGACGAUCUUAGUGAGCUCAUUUCACACAGAUCGAGGGGGUAUGCGUGGGGGAGUUGUGAGUGAGCUCAGCUCCUUCAGGCCUGGCCUCUCCCAGAACAGAGUGAAGCCCCUGCCCUGUGGAAUUCUCGGGUGCCAA | 0.725 |
| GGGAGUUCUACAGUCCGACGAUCUUCAGAAGGCAACAGGGAGUCCCUAAGAAUGUUUUUCAAAAAGGGACAUUAAGGCGAUUGGAGUUAUACUUGGAAAAGAAAGUUCUGGCCACAGUACAGAGCAUGGCCCGUGGAAUUCUCGGGUGCCAA | 0.842 |
| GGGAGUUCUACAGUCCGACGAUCAUCUGGUAUUAUUACAGAAAUCUCCCAGAUUAUACACAUAAACAUUUUAUGGACAUUUUUUGGGCAUUUAAGCCAUCAGGCCUAUUGCAAGAGUGCCUCCUGUAGCAGUUUGGAAUUCUCGGGUGCCAA | 0.303 |
| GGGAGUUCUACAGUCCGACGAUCUUCCAAACAGAUUCGAGCAAUGCUUCAGUAGAGCUCUGCUCAAAGAAGAGGAUCUAUGUGCUGACCUCAGAAGAUGUAUAUGUUUACAUAAUUUAAUACAGAUUGAUGUUUGGAAUUCUCGGGUGCCAA | 0.523 |

Set 2
Target: Histone acetyltransferase KAT6A, winged helix 1, GST fusion (KAT6A, Homo sapiens, UniProt Q92794, residues 1-85)
Technique: protein binding microarray
Molecule type: double-stranded DNA, one strand shown
Matrix: in vitro
Concentration: not given
Notes: 8-mer, flanks averaged, mean of 2 arrays, mostly near background
Baseline: not given
Reading: higher = stronger binding
Construct (chain): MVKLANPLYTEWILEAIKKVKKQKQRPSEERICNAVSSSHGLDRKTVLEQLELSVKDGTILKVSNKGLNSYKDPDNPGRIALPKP
| Oligonucleotide | E-score |
| --- | --- |
| GAGTGGCA | -0.0928 |
| ATCAGAAT | -0.243 |
| AATGGAGA | -0.0872 |
| GCATACGC | 0.229 |
| CGGCCCCA | 0.219 |
| TAATTATA | -0.0898 |
| GGACAGCC | 0.19 |
| GGTGAGAC | -0.161 |
| ATCGGTGC | -0.0432 |
| ACCACATG | -0.0895 |
| GGCGCCCC | 0.351 |
| ACTCTCCG | 0.0524 |
| TAGCCCCA | -0.178 |
| TCCATGCA | -0.018 |
| AGCTCAGG | -0.108 |
| ATTGGTAC | -0.0165 |
| CAGTATTA | -0.00234 |
| CCGATTTC | -0.0274 |
| ATTTTACC | -0.042 |
| CCGGCTCC | 0.21 |
| CGCTCTCC | 0.231 |

Set 3
Target: RING finger protein unkempt homolog, zinc fingers 1-6, GST-SBP tag (UNK, Homo sapiens, UniProt Q9C0B0, residues 30-357)
UniProt Q9C0B0, sequence (30-357, looked up): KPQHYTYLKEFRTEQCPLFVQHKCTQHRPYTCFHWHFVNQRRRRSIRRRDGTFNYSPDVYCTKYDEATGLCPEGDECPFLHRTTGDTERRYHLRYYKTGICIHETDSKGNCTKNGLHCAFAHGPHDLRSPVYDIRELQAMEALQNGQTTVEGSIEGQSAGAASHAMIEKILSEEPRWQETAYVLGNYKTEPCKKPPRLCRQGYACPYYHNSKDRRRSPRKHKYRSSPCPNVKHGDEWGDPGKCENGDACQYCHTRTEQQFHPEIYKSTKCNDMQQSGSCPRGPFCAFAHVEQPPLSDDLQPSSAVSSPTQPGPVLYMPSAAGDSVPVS
Technique: RNA Bind-n-Seq
Molecule type: RNA
Matrix: in vitro
Concentration: not given
Notes: RNA with constant flanks, human and mouse sites, ends assumed
Baseline: input RNA pool
Reading: higher = stronger binding
| Oligonucleotide | bound/input enrichment |
| --- | --- |
| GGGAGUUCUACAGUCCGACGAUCGGCUCCCCUUCCAAUGAGCUGGUGUCUGGAGGAUCUGACAAUCGGGUGAUUCAUUGGGAACUAGAGAAUAAUCAGGUUUUAAAAUCAGUCCGUCUCCAAGGCCAUGAAGGACCUGUUUGUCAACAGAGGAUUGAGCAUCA | 0.632 ratio |
| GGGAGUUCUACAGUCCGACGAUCAAUGAUGCAUCUAAUAUUGAUGGUUUCUUGGGACCAUGGGCAAAAUAUGUGGAUGAAAAAGAUGUGGCCAAACCUUCAGAAGAAGAACAAAAGGAAUUGGAUGAAAUCACAGCAAAGAGGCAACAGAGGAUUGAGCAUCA | 0.266 ratio |
| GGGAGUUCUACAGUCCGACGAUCGAAUUUGCUCCAAGCAGAUAGCUCCCUCUGAGGAACCAAAGGAAGCAAGUUUCCACGAUUUCUGAAGAGCUGGUAUAGGAAGUUUCUUUCUUCCUUUUGUGUUACAUGUGCAUUAAACAGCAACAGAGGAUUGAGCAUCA | 0.182 ratio |
| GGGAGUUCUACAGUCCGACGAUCUGGCAAAUUUGUAUCAGUAAUUUGAAAAUGAGAUAUUAGGAAAAACCAAUUCUUCUUAAAUUUAGUUCAUCUUUCUUUAAAAGAACAUUAAAUGUAACCAUUUUGUCAGAUCCAUGUAUUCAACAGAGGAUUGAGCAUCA | 0.772 ratio |
| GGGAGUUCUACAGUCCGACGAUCGGAAAUCGGGCUGAAGCGACUGAGUCCGCGAUGGAGAGAGAAAAGGAACAGUUCCGUAAGCUCUUUAUUGGUGGCUUAAGCUUUGAAACCACAGAAGAAAGUUUGAGGAACUACUACGAACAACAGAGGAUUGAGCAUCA | 0.356 ratio |
| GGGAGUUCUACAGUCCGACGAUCACUCAGAAGCCAGUUCAUCAGCUCUUUGAUUACAUUUGUGGUGUAAGCACAGGUGCCAUAUUAGCUUUCAUGUUGGGGUUGUUUCAUAUGCCCUUGGAUGAAUGUGAGGAACUUUAUCGACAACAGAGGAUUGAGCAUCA | 0.161 ratio |
| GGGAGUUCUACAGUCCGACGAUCCAUUCUCUUAGUGAUGGGCUGGAGGAAGUCCAAAAAGCAGAAAUGAAAGCUUACAUGGAAUUAGUCAACAAUAUGCUGUUGACUGCAGAGCUGUAUCUUCAGUGGUGUGAUGAAGCUACACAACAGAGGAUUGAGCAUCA | 0.157 ratio |
| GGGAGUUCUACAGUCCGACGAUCUCGGUGGGAAGCAAUGGGCUUCUGGACUUUGAUUCAGAAUAUCAGGAGCUCUGGGAUUGGCUGAUUGACAUGGAGUCCCUUGUGAUGGACAGCCACGACCUGAUGAUGUCAGAGGAGCAGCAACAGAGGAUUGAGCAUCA | 0.149 ratio |

Set 4
Target: Interferon regulatory factor 7, full length, phosphomimetic (IRF7, Homo sapiens, UniProt Q92985, residues 1-503, S101K/S471D/S472D/S475D/S476D/S477D/S483D/S484D/S487D)
Technique: protein-binding microarray
Molecule type: double-stranded DNA, one strand shown
Matrix: in vitro
Concentration: 250 nM
Notes: 60-bp whole probe
With: salmon DNA 0.4 mg/ml
Baseline: random background probes
Reading: higher = stronger binding
All sequences stand within: GCCTAGCAC … GTCTTGATTCGCTTGACGCTGCTG
Target sequence (chain): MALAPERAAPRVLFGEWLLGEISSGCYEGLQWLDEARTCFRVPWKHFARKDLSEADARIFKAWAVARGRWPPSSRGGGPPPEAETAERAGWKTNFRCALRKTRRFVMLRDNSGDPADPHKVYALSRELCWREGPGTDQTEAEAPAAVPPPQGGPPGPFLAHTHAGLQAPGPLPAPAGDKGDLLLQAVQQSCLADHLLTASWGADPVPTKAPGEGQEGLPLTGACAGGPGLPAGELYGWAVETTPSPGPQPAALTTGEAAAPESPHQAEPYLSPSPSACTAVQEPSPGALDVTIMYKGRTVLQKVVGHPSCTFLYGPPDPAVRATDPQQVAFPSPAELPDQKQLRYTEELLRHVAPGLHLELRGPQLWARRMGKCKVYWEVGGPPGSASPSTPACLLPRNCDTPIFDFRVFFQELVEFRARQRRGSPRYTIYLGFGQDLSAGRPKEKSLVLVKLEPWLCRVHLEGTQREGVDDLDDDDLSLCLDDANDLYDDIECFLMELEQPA
| Oligonucleotide | log fluorescence [z-score] |
| --- | --- |
| TTAGATTTCGAGTTTCGATTAGTGCTA | 8.68 |
| GGTTGTTTCTAATATTCTGCTGTGCTA | 0.464 |
| TTAGGGTTCGGTCTCGGTTAGTGCTAG | 2.02 |
| TTAGATACCAGACTGGATTAGTGCTAG | 0.333 |
| GGCGGTATCGGGTATCGGGACGTGCTA | 0.564 |
| TTAGGACTGGGTATCGGTTCGTGCTAG | 2.06 |
| TCATAAATGATATATATCACTGTGCTA | 0.193 |
| TTAGGTATCGACACCGGGTTAGTGCTA | 0.206 |
| CTTCCACTTAGGGTGGCTGGGTGCTAG | 0.853 |
| TCATCTCAGAATCTCTCACTGTGCTAG | 0.575 |
| TACGATCTCAGACTGGAGACGTGCTAG | -0.352 |
| TTTGCTCTGTGCATAGGTCTGTGCTAG | -0.32 |
| GACGGACTGGGGACTGGGCACGTGCTA | -0.946 |
| ACTAATTTCCATTTTCTAAAGTGCTAG | 2.52 |
| GACGGTATCGGGACTGGGGAGGTGCTA | -0.22 |
| AACGAACTGGGGTTTCGAGACGTGCTA | 2.37 |
| GACGGTATCGGGTTTCGCGACGTGCTA | 1.94 |
| TTAGGTATACTTTTCCTTTAGTGCTAG | 0.633 |
| TCAATTCTCGGGACTCACACTGTGCTA | 0.63 |

Repeated from above (set 2):
| Oligonucleotide | E-score |
| --- | --- |
| CGGCCCCA | 0.219 |
| TAATTATA | -0.0898 |
| GGACAGCC | 0.19 |
| GGTGAGAC | -0.161 |
| ATCGGTGC | -0.0432 |
| ACCACATG | -0.0895 |
| GGCGCCCC | 0.351 |
| ACTCTCCG | 0.0524 |
